Results of several laboratories.
Parts stem from different laboratories: compare values within a part only. Positions count from the first letter of the parent shown.

Study 1
Target: RNA binding protein fox-1 homolog 2, RRM domain, GST-SBP tag (RBFOX2, Homo sapiens, UniProt O43251-10, residues 100-194)
Method: RNA Bind-n-Seq
Form: RNA
Medium: in vitro
Concentration: 365 nM
Setting: natural RNA segment, single round, ends assumed
Baseline: no-protein control
Direction: higher = stronger binding
Constant ends, left off below: GGGAGUUCUACAGUCCGACGAUC … UGGAAUUCUCGGGUGCCAA
Target sequence (chain): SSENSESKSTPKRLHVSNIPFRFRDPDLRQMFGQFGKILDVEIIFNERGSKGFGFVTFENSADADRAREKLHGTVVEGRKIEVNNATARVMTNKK
Sequence | RBNS enrichment (R)
CCUGGUGCCUGGCUCUUUCGUCACCCUUGGACAAGACAAACCAAGUCGGAACAGCAGAUAACAAUGCAGCAAGGCCCUGCUGCCCAAUCUCCAUCUGUCAACAGGGGCGU | 0.35
UCUUACCGAGUCCAUAGCUUCAUGCCCCUCUCGUGACUUACUGAGGGUCCAGAUGGCUGUCAGGAAGAUGACAAGGUAGGGAGGUAAGGACCGUGUUUGGAGGCUUCUGG | 0.473
GUGGCAUUUACUGCUUCUUGAUCUCUAACCACUUGAGUUGGGUCAAGAGGAUUCUGGGCGUGGCAAGCUCUACAGGUCAAGCUGUUUCCUCUAUCCUGGUAACUCCUCAC | 0.286
GCUCCUACCUCCUGCGACACCAGCGCACCCACAGCCACGAGAGGCCCUACAGCUGCCCCGAGUGUGGCAAGUGCUAUAGCCAGAACUCGUCCCUGCGCAGUCACCAAAGG | 0.38
UGCCGCCAAUGGGCAGUGCCCUCAGGCCGAAGCCUCAAUCCCCCAUCUGAGCCAGGCCUAAUCCUCUAAUAGUGAUGGUUGGUUUGUCCUCCCAUAACUGCAGGUGGAUU | 0.159
UCCUGACAAAUCUGAUUUUUCUAGAAUCCUGUUCUUCCCUCACCUUAGGGAAGGAGAAUGUUUGUCCUGUCUCCCUACACUUCCCUGAGGGCUUCUUCCUACCAAAGUGU | 0.35
CUUGCCAGUGGUGUGCCGGGCGCGGGUCCUGUCUGGCGGCGGCCUGUCGUCUCCAGGUGCUAACUCCUGCCACCGCGCGGUGCUCACCCACGUCUGUUCGCGCGCUCGCC | 0.29
ACUAUGACAUGACUUGAGUCCAGUGAGAUCUCAUUAGGAUUAAUAUUUCAGGGAUCCUUAAUAUUUUGAUUUGUUUUCCGAGAUUGGAUUUUAUUUUAUCUGCUAUUUCA | 2.09
UUUUAAUAUGUGGACGCUGCAAAAAAUGUGUUUAAAUUAUCUUUUUUAAGAUGAAUUAAGGACUAUUAGCUCGAACUUCGAUGCAGAGUUUGUAAAUAAGGGUGUCUGUG | 0.335
AAGACAGUGUGUAGCAGCCCUGAGCUUUUCAAUUCUACUGCUCUUUCUCUUCCCGCAGACAGUCCCACACAUCAGCCUCUACUCCUUCCACCACUGCAAACCCCCAAAUU | 0.47
UCACUCUCUGAAGCACACAUCAUUGGCUUUCCUAUUUUUCUGUUCAUUUUUUAAUUGAGCAAAUGUCUAUUGAACACUUAAAAUUAAUUAGAAUGUGGUAAUGGACAUAU | 0.502

Study 2
Target: CCND2, cyclin fold, Cln2 fusion (human)
Method: yeast growth competition, sequencing
Medium: yeast
Setting: weak parent motif
Baseline: not given
Direction: higher = stronger binding
Parent: SLBP docking peptide (human); ARYKRKLLINDFG
Substitution | normalised enrichment score
ARYKRKHLINDFG [L7H] | -0.183
ARYKRKLLINDFY [G13Y] | 0.266
ARYKRKLLINHFG [D11H] | 0.104
ARYLRKLLINDFG [K4L] | 0.219
ARYKRKLLINDRG [F12R] | 0.363
ARYKRKLLINDLG [F12L] | 0.469
ARYKRKLLINKFG [D11K] | -0.445
ARYKRKDLINDFG [L7D] | 0.399
AWYKRKLLINDFG [R2W] | 0.346

Study 3
Target: Histone acetyltransferase KAT6A, winged helix 1, GST fusion (KAT6A, Homo sapiens, UniProt Q92794, residues 1-85)
Method: protein binding microarray
Form: double-stranded DNA, one strand shown
Medium: in vitro
Concentration: not given
Setting: 8-mer, flanks averaged, mean of 2 arrays, mostly near background
Baseline: not given
Direction: higher = stronger binding
Residues (chain): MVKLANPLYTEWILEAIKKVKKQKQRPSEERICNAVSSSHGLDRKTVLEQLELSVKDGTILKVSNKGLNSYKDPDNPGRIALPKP
Sequence | E-score
AACATAGC | -0.157
AACAAATC | -0.141
CTCGGTCC | 0.0105
GTTTGGGA | -0.246
CCCGAGAG | 0.0725
AACTCGCG | 0.246
TCCACCCA | -0.191
CATAACAA | -0.161
CTGGAAAA | 0.00123

Further values, each from its own experiment
Molecule | target | assay | test system | conditions | how to read | measurement | value
PhoQ, residues 284 288 289 292 302 303 NSMLDC | PhoP, residues 12 14 15 18 19 GQALL (Escherichia coli, UniProt P23836) | Sort-seq, refers to: YFP reporter | E. coli | PhoQ-PhoP variant library, added: 10 µM Mg2+ | baseline: high Mg2+ state, higher = stronger signaling | fold induction | 9.53

Repeated from above (study 1):
Sequence | RBNS enrichment (R)
UCUUACCGAGUCCAUAGCUUCAUGCCCCUCUCGUGACUUACUGAGGGUCCAGAUGGCUGUCAGGAAGAUGACAAGGUAGGGAGGUAAGGACCGUGUUUGGAGGCUUCUGG | 0.473
GUGGCAUUUACUGCUUCUUGAUCUCUAACCACUUGAGUUGGGUCAAGAGGAUUCUGGGCGUGGCAAGCUCUACAGGUCAAGCUGUUUCCUCUAUCCUGGUAACUCCUCAC | 0.286
GCUCCUACCUCCUGCGACACCAGCGCACCCACAGCCACGAGAGGCCCUACAGCUGCCCCGAGUGUGGCAAGUGCUAUAGCCAGAACUCGUCCCUGCGCAGUCACCAAAGG | 0.38
